{"data": "Measured values from different studies", "organism": "Plasmodium falciparum", "note": "± marks the error that the study gave."}
{"SMILES": "COc1cncc(-c2cc(F)cc(CNC(=O)c3cc(N4CC[C@@](C#N)(C5CC5)C4=O)cc(C)n3)c2)c1", "assay": "parasite growth", "test system": "cPRS conditional knockdown line", "conditions": "72 h, together with: 3 nM anhydrotetracycline", "measurement": "IC50", "result": "17 nM"}
{"SMILES": "COCCN(C)CC(=O)NC(Cc1ccc(-c2ccccc2)cc1)B(O)O (stereo not shown)", "assay": "[3H]-hypoxanthine incorporation", "test system": "NF54", "measurement": "IC50", "result": "172 ± 87 nM"}
{"SMILES": "Cc1cc(N2CCC(CO)(C3CC3)C2=O)cc(C(=O)NCc2cc(F)cc(-c3cnn(C)c3)c2)n1 (stereo not shown)", "assay": "parasite growth", "test system": "conditional knockdown control line", "conditions": "120 h, together with: 50 nM anhydrotetracycline", "measurement": "IC50", "result": "192 nM"}
{"SMILES": "CCNCC#CCNc1ccnc2cc(Cl)ccc12", "assay": "parasite growth, SYBR Green I", "test system": "3D7", "conditions": "single experiment", "measurement": "IC50", "result": "30 nM"}
{"SMILES": "CC(C)(C)NC(=O)CC(NC(=O)CCc1ccccc1)C(=O)NCCNC(=O)c1cccc(-c2ccccc2)c1 (stereo not shown)", "assay": "parasite growth, SYBR Green", "test system": "3D7", "conditions": "72 h, blood stage", "measurement": "EC50", "result": "4.6 nM"}
{"SMILES": "COc1cccc2c(-c3ccc(O)c4c3CCN=C4)ccc(OC(C)C)c12", "assay": "asexual parasite growth, SYBR Green I", "test system": "clinical isolate SB_04, Malawi", "measurement": "IC50", "result": "338 ± 54 nM"}
{"SMILES": "Cc1cc(C(=O)N[C@@H](CC(=O)NC(C)(C)C)C(=O)NCCNC(=O)c2cccc(-c3ccn[nH]3)c2)no1", "assay": "parasite growth", "test system": "NF54", "conditions": "72 h, gametocyte", "measurement": "EC50", "result": "229 nM"}
{"SMILES": "COc1cc2c(c(OC)c1)C(C)=[N+](c1ccc(OC)c3c(OC)cc(C)cc13)[C@@H](C)C2", "assay": "asexual parasite proliferation, SYBR Green I fluorescence", "test system": "7G8", "measurement": "IC50", "result": "710 ± 160 nM"}
{"SMILES": "Cc1cc(C(=O)N[C@@H](CC(=O)NC(C)(C)C)C(=O)NCCNC(=O)c2cc(-c3ccccc3)ccn2)no1", "assay": "female gamete activation", "test system": "NF54", "conditions": "48 h", "measurement": "EC50", "result": "> 10000 nM"}
{"SMILES": "COc1cccc2c(-c3ccc(O)c4c3CC(C)(C)N=C4)ccc(OC(C)C)c12", "assay": "asexual parasite growth, SYBR Green I", "test system": "clinical isolate SB_04, Malawi", "measurement": "IC50", "result": "492.6 ± 3.8 nM"}
{"SMILES": "Cc1cc(N2CC[C@@](C#N)(C3CC3)C2=O)cc(NC(=O)Cc2ccccc2)n1", "assay": "parasite growth", "test system": "cPRS conditional knockdown line", "conditions": "72 h, together with: 12.5 nM anhydrotetracycline", "measurement": "IC50", "result": "7 nM"}
{"SMILES": "COc1cccc2c(-c3ccc(O)c4c3CCNC4)ccc(O)c12", "assay": "asexual parasite proliferation, SYBR Green I fluorescence", "test system": "clinical isolate SB_05, Mozambique", "measurement": "IC50", "result": "381 ± 5.7 nM"}
{"SMILES": "CCc1nc(N)nc(N)c1-c1ccc(Cl)cc1", "test system": "3D7", "conditions": "10 × EC50, 120 h", "measurement": "lag phase", "result": "24 h"}
